Results from different studies.
Lines come from different studies, so protocols differ. Numbers after ± are the reported error.
UCHL1: Ubiquitin carboxyl-terminal hydrolase isozyme L1 (UCHL1, Homo sapiens, UniProt P09936)
Sequence of UniProt P09936 (whole entry, looked up): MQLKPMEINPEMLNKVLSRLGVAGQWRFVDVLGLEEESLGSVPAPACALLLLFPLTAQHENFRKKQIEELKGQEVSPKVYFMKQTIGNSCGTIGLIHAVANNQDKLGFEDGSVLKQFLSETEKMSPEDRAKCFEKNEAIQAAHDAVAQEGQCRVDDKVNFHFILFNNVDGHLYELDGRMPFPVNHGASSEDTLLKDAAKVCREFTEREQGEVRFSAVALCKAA
CYP2C8: Cytochrome P450 2C8 (CYP2C8, Homo sapiens, UniProt P10632)
Sequence of UniProt P10632 (whole entry, looked up): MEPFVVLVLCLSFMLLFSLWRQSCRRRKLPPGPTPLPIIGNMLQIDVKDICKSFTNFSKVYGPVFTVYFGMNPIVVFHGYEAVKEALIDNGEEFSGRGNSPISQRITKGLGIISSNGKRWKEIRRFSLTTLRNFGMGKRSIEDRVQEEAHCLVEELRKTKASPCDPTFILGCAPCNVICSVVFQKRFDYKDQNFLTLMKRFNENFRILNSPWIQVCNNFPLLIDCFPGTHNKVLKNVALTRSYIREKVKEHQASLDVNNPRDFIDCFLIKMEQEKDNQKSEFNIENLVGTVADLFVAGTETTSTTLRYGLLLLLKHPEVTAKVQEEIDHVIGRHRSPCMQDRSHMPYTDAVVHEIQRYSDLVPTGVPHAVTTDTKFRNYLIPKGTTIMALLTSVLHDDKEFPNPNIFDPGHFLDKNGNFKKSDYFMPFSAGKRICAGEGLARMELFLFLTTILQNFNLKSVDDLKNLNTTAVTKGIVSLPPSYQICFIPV
7-alpha-hydroxycholest-4-en-3-one 12-alpha-hydroxylase: 7-alpha-hydroxycholest-4-en-3-one 12-alpha-hydroxylase (Homo sapiens, UniProt Q9UNU6)
Sequence of UniProt Q9UNU6 (whole entry, looked up): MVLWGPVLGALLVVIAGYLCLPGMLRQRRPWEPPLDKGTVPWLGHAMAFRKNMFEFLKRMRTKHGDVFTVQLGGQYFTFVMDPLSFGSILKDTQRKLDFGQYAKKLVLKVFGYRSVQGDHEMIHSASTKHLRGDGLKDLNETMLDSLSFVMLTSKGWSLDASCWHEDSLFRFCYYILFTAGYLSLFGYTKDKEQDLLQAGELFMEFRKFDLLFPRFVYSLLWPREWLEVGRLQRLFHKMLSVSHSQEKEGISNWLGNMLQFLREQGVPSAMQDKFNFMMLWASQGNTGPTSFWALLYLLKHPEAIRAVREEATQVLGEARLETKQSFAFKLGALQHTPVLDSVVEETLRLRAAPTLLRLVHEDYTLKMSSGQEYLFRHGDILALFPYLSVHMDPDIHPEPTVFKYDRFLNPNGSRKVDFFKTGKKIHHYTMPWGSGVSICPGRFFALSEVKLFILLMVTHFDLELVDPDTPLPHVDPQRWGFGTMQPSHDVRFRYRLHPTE
Sequence of UniProt Q9HAW7 (whole entry, looked up): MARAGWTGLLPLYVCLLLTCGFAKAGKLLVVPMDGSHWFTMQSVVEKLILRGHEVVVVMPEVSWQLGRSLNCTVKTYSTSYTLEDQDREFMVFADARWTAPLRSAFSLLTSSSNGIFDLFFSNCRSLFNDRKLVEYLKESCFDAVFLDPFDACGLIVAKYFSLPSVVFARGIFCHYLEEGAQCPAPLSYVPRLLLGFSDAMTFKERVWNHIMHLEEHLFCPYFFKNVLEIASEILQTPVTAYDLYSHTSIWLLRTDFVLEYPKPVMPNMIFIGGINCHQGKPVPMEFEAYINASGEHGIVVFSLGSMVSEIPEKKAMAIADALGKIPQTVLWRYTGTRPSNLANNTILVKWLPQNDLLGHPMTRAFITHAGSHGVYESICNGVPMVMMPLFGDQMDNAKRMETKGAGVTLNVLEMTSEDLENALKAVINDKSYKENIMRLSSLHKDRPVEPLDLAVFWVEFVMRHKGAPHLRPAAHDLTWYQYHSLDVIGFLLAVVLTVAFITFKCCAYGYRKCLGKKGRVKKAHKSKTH
Sequence of UniProt P04798 (whole entry, looked up): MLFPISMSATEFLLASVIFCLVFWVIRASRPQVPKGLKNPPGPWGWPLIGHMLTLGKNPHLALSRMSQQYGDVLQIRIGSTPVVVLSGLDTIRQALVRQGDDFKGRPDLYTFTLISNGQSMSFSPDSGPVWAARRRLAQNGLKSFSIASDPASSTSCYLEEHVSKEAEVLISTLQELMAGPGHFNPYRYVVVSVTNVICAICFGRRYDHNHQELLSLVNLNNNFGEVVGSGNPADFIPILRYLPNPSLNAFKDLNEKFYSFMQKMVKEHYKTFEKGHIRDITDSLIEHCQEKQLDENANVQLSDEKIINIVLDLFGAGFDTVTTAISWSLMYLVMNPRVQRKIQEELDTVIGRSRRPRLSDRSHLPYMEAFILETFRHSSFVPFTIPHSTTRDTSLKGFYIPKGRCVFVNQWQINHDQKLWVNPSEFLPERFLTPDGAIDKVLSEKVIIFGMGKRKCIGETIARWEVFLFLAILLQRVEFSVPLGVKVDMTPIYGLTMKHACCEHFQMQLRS
Sequence of UniProt P08183 (whole entry, looked up): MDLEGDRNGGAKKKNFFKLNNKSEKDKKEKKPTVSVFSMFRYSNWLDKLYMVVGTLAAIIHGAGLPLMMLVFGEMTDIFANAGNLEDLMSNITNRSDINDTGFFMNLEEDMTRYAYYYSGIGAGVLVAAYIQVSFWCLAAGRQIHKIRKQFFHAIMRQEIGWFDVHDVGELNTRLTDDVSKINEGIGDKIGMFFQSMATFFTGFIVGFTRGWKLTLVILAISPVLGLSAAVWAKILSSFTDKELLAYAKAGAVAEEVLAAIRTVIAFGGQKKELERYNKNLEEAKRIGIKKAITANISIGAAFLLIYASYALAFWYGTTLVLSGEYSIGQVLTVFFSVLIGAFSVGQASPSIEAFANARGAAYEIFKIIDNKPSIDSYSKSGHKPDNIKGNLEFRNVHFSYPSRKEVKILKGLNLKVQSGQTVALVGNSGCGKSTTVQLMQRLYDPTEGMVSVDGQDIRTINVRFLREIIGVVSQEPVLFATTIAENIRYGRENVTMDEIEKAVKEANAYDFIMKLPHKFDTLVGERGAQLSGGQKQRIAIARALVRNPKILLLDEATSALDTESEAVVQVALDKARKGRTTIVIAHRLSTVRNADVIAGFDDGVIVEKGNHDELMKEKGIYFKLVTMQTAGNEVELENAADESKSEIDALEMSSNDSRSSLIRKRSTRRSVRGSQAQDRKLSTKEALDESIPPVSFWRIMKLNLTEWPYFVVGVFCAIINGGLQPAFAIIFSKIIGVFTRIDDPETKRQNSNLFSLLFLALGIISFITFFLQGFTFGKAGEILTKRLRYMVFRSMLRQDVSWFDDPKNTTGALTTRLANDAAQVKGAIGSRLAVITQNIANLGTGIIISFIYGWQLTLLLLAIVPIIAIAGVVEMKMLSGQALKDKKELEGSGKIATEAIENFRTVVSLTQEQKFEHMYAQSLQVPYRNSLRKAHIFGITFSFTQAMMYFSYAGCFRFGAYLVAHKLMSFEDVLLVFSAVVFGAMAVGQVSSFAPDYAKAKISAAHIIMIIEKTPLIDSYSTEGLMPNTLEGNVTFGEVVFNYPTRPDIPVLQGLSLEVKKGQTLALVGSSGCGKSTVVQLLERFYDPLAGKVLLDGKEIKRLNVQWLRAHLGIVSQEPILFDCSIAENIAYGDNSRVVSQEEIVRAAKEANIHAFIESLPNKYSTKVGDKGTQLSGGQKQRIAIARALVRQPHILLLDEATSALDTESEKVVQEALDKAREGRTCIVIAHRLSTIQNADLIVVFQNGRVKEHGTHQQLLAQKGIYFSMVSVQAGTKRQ
Sequence of UniProt P04233 (whole entry, unmodified, looked up): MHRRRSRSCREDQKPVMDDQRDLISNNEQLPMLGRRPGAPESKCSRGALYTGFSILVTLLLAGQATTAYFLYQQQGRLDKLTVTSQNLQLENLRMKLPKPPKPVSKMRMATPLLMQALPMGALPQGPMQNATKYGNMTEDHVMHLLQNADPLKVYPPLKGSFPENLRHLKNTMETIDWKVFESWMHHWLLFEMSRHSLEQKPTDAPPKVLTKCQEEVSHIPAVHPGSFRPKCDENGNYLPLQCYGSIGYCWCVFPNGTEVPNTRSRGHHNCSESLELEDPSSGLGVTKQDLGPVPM
Sequence of UniProt Q12809 (whole entry, looked up): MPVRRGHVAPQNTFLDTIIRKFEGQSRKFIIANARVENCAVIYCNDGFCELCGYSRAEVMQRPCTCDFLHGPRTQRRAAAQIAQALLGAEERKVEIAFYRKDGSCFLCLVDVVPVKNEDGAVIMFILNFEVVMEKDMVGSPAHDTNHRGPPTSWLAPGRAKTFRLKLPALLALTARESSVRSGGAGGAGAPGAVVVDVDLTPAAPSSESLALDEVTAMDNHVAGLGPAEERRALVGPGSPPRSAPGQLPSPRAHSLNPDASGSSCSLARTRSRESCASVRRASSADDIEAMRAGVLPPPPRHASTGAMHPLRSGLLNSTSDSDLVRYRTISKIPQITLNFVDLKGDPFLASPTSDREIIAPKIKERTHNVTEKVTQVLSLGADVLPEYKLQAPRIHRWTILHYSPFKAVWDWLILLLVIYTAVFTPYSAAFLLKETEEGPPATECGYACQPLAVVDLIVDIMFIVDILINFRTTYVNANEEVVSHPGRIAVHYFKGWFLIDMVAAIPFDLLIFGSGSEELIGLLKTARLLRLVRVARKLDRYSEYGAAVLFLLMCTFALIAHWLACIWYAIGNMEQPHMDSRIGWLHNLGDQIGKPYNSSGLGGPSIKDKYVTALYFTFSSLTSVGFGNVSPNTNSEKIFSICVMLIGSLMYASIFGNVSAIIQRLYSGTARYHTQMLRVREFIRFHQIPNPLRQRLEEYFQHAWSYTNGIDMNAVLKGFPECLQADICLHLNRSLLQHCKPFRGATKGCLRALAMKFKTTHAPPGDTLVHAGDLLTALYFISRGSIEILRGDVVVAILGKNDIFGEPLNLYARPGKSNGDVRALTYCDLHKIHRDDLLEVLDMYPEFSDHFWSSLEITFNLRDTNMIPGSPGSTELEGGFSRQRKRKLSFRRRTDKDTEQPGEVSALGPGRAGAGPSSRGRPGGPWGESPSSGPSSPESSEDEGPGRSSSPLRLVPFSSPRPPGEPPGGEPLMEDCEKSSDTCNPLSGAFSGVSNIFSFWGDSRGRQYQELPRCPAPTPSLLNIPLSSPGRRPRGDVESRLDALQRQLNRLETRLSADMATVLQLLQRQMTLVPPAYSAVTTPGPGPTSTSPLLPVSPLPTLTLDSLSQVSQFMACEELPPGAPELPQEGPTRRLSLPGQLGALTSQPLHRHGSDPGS

Under “Papp A to B”, `CC1(C)CCC2(CC1)N[C@@H](C(=O)N[C@@H]1CC[C@@H](C(N)=O)OC1)[C@H](c1ccnc(Cl)c1F)[C@]21C(=O)Nc2cc(Cl)ccc21` is recorded as 1.24 ×10⁻⁶ cm/s (ABCB1 (Homo sapiens, UniProt P08183); Caco-2 monolayers; 3 µM, 120 min, no inhibitor).
`C[C@@H](c1nc(-c2ccc(C#N)cc2)cs1)[C@](O)(Cn1cncn1)c1cc(F)ccc1F` has an IC50 of 3.62 µM (lenvatinib metabolism; inhibitor; human liver microsomes; 30 min, pH 7.4, with: lenvatinib substrate).
For `Cc1oc2ccccc2c1Cc1cc(I)c(OCC(=O)O)c(I)c1`, “activation V1/2 shift” read -13 ± 2.5 mV (KCNH2 (Homo sapiens, UniProt Q12809); potassium current, patch clamp; SH-SY5Y endogenous hERG; 10 µM; relative to: control).
`Cc1cc(N(C)NC(=O)C(C)(C)C)nc(Cl)c1C#N` gave a labelling of 14.6% (UCHL1; covalent, intact protein LC-MS; 12.5 µM).
`CC(C)=CCc1cc2c(cc1O)O[C@H](c1ccc(O)cc1)CC2=O` gave a CLint of 536 µL/min/mg (UGT1A7 (Homo sapiens, UniProt Q9HAW7); glucuronidation, substrate; recombinant enzyme; pH 7.4).
For `CCOc1cc(CC(=O)N[C@@H](CC(C)C)c2ccccc2N2CCCCC2)ccc1C(=O)O`, “geometric mean Cmax” read 7.34 ng/mL (CYP2C8; substrate; human, plasma; 0.5 mg, day 1).
With `O=C(CCl)NC(Cc1ccccc1)c1ccccc1F` (centres unmarked) the labelling was 17.7% (UCHL1; covalent, intact protein LC-MS; 12.5 µM).
For `C[C@@H](c1ncncc1F)[C@](O)(Cn1cncn1)c1ccc(F)cc1F`, the IC50 was 1.3 µM (lenvatinib metabolism; inhibitor; rat liver microsomes; 30 min, pH 7.4, with: lenvatinib substrate).
For `CC[C@H](C)[C@H](NC(=O)[C@@H]1CCC(=O)NCCCC[C@H](NC(=O)[C@@H](N)CC(=O)O)C(=O)N[C@@H](CCCNC(=N)N)C(=O)N[C@@H](CC(N)=O)C(=O)N[C@@H]([C@@H](C)CC)C(=O)N[C@@H](Cc2ccccc2)C(=O)N[C@@H](CC(C)C)C(=O)N1)C(=O)N[C@@H](CCCCN)C(=O)N[C@@H](Cc1ccccc1)C(=O)N[C@@H](CCCCN)C(=O)N[C@@H](CCCCN)C(=O)N[C@@H](CCCCN)C(=O)O`, the half-life was greater than 24 h (trypsin; stability; 0.33 mM, pH 7.4).
Under “geometric mean AUC(0-inf)”, `Cc1cc(Nc2ncnc3ccc(NC4=NC(C)(C)CO4)cc23)ccc1Oc1ccn2ncnc2c1` is recorded as 2480 ng·h/mL (CYP2C8; substrate; human, plasma; oral, 300 mg single dose, day 1).
For `CC[C@H]1[C@@H](O)[C@@H]2[C@H](CC[C@]3(C)[C@@H]([C@H](C)CCNC(=O)NS(=O)(=O)c4ccc(C(C)(C)C)cc4)CC[C@@H]23)[C@@]2(C)CC[C@@H](O)C[C@@H]12`, the Cmax mean was 60.1 ng/mL (Cytochrome P450 3A4 (CYP3A4, Homo sapiens, UniProt P08684); human, plasma; dose not given, with: fluconazole).
`c1c[nH]cn1` has a Kd of 878 µM (7-alpha-hydroxycholest-4-en-3-one 12-alpha-hydroxylase; binding).
Under “maximal absorbance change”, `CC(C)CCC[C@@H](C)[C@H]1CC[C@H]2[C@@H]3[C@H](O)CC4=CC(=O)CC[C@]4(C)[C@H]3CC[C@]12C` is recorded as 0.0076 (7-alpha-hydroxycholest-4-en-3-one 12-alpha-hydroxylase; binding, Soret peak shift).
`O=C(Cn1ccnc1[N+](=O)[O-])NCc1ccccc1` has an inhibition of 20.4% (Trypanosoma cruzi; reporter translation, Renilla luciferase mRNA translation; cell-free extract; 40 µM; relative to: DMSO).
`CC(C)Cn1cnc2c(N)nc3ccccc3c21` gave a remaining compound of roughly 17% (Cytochrome P450 1A1 (CYP1A1, Homo sapiens, UniProt P04798); substrate, LC-MS; recombinant microsomes; 0.5 µM, 15 min, pH 7.4, 37 °C; relative to: control).
Under “body weight gain”, `CCn1ncc2c1-c1cnc(N)c(c1)O[C@H](C)c1cc(F)ccc1-c1nn(C)nc1C2` is recorded as 5% (CD74-ROS1 (CD74/ROS1, Homo sapiens, UniProt P04233+P08922, G2032R); Balb/c nude mice, intracranial CD74-ROS1 xenograft; 3 mg/kg twice daily, mean).
`CC[C@@H]([C@H](C)O)n1ncn(-c2ccc(N3CCN(c4ccc(OC[C@@H]5CO[C@@](Cn6cncn6)(c6ccc(F)cc6F)C5)cc4)CC3)cc2)c1=O` gave an IC50 of 2.4 µM (lenvatinib metabolism; inhibitor; rat liver microsomes; 30 min, pH 7.4, with: lenvatinib substrate).
For `CC[C@H](C)[C@H](NC(=O)[C@H](Cc1ccc(O)cc1)NC(=O)[C@@H](NC(=O)[C@@H](N)CCCN=C(N)N)C(C)C)C(=O)N[C@@H](Cc1c[nH]cn1)C(=O)N1CCC[C@H]1C(=O)N[C@@H](Cc1ccccc1)C(=O)O`, the proteolytic conversion was 57.6 ± 3.2% (trypsin; LC-MS; 20 µM, 30 min, pH 7.4, 25 °C).
The Cmax of `Cc1cc(Nc2ncnc3ccc(NC4=NC(C)(CO)CO4)cc23)ccc1Oc1ccn2ncnc2c1` (centres unmarked) is reported as 55.4 ng/mL (CYP2C8; human, plasma; oral, 300 mg tucatinib single dose, day 1, arithmetic mean).
`CCc1nc(N)nc(N)c1-c1ccc(Cl)cc1` has a Ki of 3.84 ± 2.64 µM (human MATE1/MATE2-K; inhibitor, item: N1-methyladenosine renal clearance; human, plasma; oral, from plasma Cmax).

For quick reference, copied from above:
Under “geometric mean AUC(0-inf)”, `Cc1cc(Nc2ncnc3ccc(NC4=NC(C)(C)CO4)cc23)ccc1Oc1ccn2ncnc2c1` is recorded as 2480 ng·h/mL (CYP2C8; substrate; human, plasma; oral, 300 mg single dose, day 1).
For `CC[C@H]1[C@@H](O)[C@@H]2[C@H](CC[C@]3(C)[C@@H]([C@H](C)CCNC(=O)NS(=O)(=O)c4ccc(C(C)(C)C)cc4)CC[C@@H]23)[C@@]2(C)CC[C@@H](O)C[C@@H]12`, the Cmax mean was 60.1 ng/mL (Cytochrome P450 3A4 (CYP3A4, Homo sapiens, UniProt P08684); human, plasma; dose not given, with: fluconazole).
`c1c[nH]cn1` has a Kd of 878 µM (7-alpha-hydroxycholest-4-en-3-one 12-alpha-hydroxylase; binding).
